Published values pooled from the literature.
Numbered parts are unrelated; each lists some results of a single study. Changes are numbered by the printed parent chain.

Set 1 — target: CCND1, cyclin fold, Cln2 fusion (human); method: yeast growth competition, sequencing; medium: yeast; setting: weak parent motif; relative to: not given; reading: higher = stronger binding; parent: viral docking peptide; TSVRRALFTGGSD
Change | normalised enrichment score
L7T | 0.151
G10E | 1.86
L7N | 0.2
S2G | 0.404
F8Q | 0.0253
R4C | 1.46
T9D | 0.379
T9Q | 0.47
G10M | 0.0959
T1A | 0.808
T9K | 0.549
T9C | 0.416
S12Y | 0.374
T9E | 0.337
T9F | 1.24
G11K | 0.406
F8R | 0.00762
G11V | 0.449
A6D | 0.0166
S12C | 0.45
R4G | -0.272
R4A | 0.56
G11Q | 0.461
T9V | 0.593
A6L | 0.379

Set 2 — read-out: peptide-MHC binding; form: peptide; tested at: concentration not given
Target: HLA class I histocompatibility antigen, C alpha chain, allele C*04:01 (Homo sapiens, UniProt P10321)
Sequence | binding
FVYSVSFHK | inactive
AEMGANLCV | inactive
MPFIATPPV | inactive
FVDVIIIKV | inactive
YSFSRAYTL | inactive
LMMNGTSAM | inactive
FADSDNIAM | inactive
WMRWGGWPF | inactive
TFMGMNVQF | inactive
MVIKWIHER | inactive
SYCNGVREL | inactive
FPRIGTAVF | inactive
RQHPGLFPF | inactive
SLYSGFPSL | inactive
FYYNAFHWAI | inactive
RPRRASSPF | inactive
KLMDVVYSI | inactive
MSWGWRLPF | inactive
MTHPQSEAA | inactive
IQNDLITEF | inactive
APRARTAAF | inactive
GSSDFQVHFLK | inactive
MMYTVSLGK | inactive
AEYLYADGI | inactive
YYWPRPRRY | inactive

Set 3 — mode: antagonist
Target: Beta-1 adrenergic receptor (ADRB1, Homo sapiens, UniProt P08588)
UniProt P08588, sequence (whole entry, looked up): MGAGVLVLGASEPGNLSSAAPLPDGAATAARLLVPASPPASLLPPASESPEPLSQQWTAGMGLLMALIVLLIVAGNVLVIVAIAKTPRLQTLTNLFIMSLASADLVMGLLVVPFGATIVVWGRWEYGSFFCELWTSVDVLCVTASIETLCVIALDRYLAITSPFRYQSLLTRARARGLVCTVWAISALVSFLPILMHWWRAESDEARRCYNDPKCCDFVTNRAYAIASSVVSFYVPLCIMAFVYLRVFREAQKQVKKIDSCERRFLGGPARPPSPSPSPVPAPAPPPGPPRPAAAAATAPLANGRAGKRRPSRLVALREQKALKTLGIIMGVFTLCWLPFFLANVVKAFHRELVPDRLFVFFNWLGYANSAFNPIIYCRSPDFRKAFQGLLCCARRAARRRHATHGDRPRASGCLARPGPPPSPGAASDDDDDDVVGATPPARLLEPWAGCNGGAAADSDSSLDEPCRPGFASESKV
SMILES | IC50
Clc1cccc(N2CCNCC2)c1Cl | ≥ 100 µM
Oc1cc2ccccc2c2ccccc12 | ≥ 100 µM
O=C1NCC2(CCCN(Cc3cc(O)c4cccc(F)c4n3)C2)O1 (stereo not shown) | ≥ 100 µM

Set 4 — method: protein-binding microarray; form: double-stranded DNA, one strand shown; medium: in vitro; tested at: not given; reading: higher = stronger binding
Target: Transcriptional repressor CTCF (CTCF, Homo sapiens, UniProt P49711, residues 1-727, full length assumed)
Setting: k-mer, scored over probes, only values ≥0.25
Target sequence (chain): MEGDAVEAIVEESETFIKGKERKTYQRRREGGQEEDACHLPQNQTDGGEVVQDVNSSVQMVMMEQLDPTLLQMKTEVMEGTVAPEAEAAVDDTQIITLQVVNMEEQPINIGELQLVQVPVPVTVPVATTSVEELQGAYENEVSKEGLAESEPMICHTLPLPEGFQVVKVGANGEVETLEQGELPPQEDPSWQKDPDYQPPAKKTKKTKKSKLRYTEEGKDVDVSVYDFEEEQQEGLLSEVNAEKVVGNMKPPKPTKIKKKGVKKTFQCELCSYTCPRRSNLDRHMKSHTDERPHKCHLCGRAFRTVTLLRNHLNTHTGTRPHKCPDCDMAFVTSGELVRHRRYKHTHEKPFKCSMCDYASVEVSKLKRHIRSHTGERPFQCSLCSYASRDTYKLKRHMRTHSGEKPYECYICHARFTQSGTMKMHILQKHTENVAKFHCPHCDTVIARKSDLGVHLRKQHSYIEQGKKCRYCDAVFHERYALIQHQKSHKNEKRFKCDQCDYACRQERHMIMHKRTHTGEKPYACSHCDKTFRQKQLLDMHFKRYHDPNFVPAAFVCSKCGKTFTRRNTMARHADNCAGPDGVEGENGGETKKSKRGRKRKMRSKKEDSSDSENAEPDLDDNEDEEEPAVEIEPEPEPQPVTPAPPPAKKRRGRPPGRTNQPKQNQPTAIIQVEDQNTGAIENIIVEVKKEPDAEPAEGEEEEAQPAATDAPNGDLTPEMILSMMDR
Oligonucleotide | E-score
GTAGTATA | 0.307
GCGCAAAC | 0.319
ATATGTGG | 0.342
TGGCGCCA | 0.331
CGATAGCG | 0.265
CCGCCAGG | 0.351
ATACTCAA | 0.265
TTATAAAA | 0.282
